Results gathered from unrelated publications.
Lines come from different studies, so protocols differ. Numbers after ± are the reported error.
SIRT5: NAD-dependent protein deacylase sirtuin-5, mitochondrial (SIRT5, Homo sapiens, UniProt Q9NXA8)
Sequence of UniProt Q9NXA8 (whole entry, looked up): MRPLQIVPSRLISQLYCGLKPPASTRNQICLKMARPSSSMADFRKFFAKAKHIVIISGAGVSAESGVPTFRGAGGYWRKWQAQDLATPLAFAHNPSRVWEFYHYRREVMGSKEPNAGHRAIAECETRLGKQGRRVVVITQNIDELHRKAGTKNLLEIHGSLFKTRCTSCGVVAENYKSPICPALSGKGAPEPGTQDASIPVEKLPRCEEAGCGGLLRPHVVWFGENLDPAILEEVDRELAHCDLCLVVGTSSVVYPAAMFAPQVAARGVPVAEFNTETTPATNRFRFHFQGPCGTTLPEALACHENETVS
DDR2: Discoidin domain-containing receptor 2 (DDR2, Homo sapiens, UniProt Q16832)
Sequence of UniProt Q16832 (whole entry, looked up): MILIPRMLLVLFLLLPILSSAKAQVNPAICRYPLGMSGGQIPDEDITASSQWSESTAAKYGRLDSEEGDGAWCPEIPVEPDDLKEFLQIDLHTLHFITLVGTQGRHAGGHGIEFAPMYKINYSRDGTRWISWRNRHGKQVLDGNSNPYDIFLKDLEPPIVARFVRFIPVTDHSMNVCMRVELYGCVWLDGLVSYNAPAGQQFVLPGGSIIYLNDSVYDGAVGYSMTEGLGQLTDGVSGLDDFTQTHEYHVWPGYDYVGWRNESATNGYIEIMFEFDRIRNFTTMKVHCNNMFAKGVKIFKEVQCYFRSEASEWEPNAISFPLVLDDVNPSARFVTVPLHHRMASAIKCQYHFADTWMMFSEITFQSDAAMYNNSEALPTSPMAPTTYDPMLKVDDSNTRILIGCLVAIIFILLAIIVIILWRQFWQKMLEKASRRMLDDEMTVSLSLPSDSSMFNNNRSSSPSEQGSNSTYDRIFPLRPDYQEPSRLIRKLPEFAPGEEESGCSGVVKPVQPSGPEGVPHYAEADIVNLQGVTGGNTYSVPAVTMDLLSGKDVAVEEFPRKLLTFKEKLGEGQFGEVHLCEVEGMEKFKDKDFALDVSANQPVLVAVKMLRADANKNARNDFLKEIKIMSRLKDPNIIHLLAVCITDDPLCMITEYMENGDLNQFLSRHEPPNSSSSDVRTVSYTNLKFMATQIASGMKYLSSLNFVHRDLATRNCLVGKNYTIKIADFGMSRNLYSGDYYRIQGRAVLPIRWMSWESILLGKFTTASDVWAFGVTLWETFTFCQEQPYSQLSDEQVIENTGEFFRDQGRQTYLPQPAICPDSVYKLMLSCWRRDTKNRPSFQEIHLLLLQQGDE
CDK4: Cyclin-dependent kinase 4 (CDK4, Homo sapiens, UniProt P11802)
Sequence of UniProt P11802 (whole entry, looked up): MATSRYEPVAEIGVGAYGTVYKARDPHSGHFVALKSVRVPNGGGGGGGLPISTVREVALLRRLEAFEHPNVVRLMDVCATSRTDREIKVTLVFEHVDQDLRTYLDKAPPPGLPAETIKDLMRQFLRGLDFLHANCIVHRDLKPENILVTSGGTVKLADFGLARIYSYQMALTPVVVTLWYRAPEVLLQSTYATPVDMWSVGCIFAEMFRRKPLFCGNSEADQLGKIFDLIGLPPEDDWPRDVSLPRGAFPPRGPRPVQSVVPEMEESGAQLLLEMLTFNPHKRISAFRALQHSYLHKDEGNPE
HDAC11: Histone deacetylase 11 (HDAC11, Homo sapiens, UniProt Q96DB2)
Sequence of UniProt Q96DB2 (whole entry, looked up): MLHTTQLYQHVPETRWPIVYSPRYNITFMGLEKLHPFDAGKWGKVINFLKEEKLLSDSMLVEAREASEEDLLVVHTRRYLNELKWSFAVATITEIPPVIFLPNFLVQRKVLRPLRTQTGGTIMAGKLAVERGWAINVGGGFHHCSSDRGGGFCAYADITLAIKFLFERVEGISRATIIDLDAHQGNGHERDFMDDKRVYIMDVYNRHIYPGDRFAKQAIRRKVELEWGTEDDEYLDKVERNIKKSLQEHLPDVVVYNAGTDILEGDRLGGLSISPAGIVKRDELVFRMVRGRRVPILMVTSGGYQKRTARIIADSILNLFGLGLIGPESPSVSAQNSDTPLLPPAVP
VKORC1: Vitamin K epoxide reductase complex subunit 1 (VKORC1, Homo sapiens, UniProt Q9BQB6)
Sequence of UniProt Q9BQB6 (whole entry, looked up): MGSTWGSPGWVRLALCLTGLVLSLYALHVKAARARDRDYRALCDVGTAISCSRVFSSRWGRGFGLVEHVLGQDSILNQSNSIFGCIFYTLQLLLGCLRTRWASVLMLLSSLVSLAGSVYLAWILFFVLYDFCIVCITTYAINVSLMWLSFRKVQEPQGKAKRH
Sequence of UniProt P09936 (whole entry, looked up): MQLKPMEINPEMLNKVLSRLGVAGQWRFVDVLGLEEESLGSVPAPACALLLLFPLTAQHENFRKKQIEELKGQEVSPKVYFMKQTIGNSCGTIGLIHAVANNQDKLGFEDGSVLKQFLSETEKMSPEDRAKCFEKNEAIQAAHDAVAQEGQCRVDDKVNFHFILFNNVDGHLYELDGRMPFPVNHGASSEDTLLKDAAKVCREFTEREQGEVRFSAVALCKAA
Sequence of UniProt P63252 (whole entry, looked up): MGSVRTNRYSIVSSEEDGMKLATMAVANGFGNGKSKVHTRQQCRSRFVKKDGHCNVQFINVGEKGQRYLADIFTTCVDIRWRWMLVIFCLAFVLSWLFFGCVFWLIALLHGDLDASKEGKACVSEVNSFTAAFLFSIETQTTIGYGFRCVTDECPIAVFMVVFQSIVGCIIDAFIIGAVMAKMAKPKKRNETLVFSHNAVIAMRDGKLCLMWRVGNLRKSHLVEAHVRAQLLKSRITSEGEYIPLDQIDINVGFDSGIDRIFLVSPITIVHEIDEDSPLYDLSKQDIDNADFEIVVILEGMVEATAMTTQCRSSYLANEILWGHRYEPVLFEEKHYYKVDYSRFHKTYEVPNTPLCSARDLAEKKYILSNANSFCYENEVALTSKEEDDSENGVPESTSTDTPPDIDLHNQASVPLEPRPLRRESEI
Sequence of UniProt Q91XB0 (whole entry, looked up): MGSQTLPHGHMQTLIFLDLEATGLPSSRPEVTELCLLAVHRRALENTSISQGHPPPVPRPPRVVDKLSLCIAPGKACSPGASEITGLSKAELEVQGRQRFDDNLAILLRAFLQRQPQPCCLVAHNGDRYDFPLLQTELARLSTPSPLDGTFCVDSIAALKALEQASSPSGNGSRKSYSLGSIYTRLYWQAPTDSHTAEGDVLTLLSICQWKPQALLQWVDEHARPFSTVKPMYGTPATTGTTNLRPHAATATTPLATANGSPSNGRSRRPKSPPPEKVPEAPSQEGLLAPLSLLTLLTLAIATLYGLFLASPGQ
Sequence of UniProt P19491 (whole entry, looked up): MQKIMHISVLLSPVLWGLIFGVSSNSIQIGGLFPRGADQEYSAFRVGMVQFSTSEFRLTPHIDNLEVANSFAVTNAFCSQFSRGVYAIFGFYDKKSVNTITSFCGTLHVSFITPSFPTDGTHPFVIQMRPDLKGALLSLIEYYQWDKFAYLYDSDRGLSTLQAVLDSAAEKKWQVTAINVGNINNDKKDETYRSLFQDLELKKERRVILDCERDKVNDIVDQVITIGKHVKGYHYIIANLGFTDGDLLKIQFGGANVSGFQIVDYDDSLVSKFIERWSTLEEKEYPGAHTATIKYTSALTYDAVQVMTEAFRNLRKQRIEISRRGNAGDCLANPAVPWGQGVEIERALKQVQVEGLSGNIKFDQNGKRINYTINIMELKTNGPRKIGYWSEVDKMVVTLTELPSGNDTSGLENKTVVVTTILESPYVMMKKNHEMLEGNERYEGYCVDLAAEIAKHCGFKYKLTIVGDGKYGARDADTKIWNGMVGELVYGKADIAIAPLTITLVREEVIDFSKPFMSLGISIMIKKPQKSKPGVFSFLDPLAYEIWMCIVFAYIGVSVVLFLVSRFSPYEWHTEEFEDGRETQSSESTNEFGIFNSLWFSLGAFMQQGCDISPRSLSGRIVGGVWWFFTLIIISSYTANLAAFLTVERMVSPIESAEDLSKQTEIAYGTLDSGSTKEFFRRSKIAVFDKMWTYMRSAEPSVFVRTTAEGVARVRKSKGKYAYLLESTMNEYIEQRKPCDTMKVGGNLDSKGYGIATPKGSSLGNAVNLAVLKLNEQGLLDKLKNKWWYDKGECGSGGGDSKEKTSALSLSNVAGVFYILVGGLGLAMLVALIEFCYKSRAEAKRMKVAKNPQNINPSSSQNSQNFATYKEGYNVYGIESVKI
Sequence of UniProt P21397 (whole entry, looked up): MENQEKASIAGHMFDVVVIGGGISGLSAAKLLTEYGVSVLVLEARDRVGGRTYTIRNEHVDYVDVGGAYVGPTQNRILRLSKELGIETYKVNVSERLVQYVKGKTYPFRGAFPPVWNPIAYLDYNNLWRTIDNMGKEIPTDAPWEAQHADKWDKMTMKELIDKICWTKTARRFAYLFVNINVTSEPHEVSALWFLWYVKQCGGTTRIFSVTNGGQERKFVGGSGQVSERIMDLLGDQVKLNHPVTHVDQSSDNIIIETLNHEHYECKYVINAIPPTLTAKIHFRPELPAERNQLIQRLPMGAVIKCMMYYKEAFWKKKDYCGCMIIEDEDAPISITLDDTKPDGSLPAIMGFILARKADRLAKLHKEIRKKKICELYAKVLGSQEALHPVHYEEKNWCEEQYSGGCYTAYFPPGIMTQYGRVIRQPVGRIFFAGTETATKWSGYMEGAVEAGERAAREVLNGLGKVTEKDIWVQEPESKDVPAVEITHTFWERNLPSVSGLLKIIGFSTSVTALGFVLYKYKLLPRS
Sequence of UniProt Q96GW9 (whole entry, looked up): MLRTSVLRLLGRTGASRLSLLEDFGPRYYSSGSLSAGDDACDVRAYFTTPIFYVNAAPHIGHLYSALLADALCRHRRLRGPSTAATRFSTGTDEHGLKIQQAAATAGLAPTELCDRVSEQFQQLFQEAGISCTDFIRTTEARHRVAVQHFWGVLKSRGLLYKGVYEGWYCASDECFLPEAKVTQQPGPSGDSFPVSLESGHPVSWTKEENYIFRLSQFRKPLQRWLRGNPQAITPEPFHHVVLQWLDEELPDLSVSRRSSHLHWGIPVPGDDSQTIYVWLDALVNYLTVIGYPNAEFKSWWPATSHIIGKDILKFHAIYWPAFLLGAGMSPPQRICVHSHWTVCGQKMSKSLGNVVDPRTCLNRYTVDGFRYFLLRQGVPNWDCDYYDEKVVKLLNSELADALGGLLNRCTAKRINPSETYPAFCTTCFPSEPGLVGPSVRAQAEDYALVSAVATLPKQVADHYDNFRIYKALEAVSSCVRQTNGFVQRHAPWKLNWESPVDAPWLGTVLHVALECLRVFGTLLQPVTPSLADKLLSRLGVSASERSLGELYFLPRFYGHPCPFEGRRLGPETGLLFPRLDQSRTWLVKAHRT

Compound	target	assay	system	setting	IC50 [nM]
O=C(O)CCNC(=S)NCCCC[C@H](NS(=O)(=O)c1cccc(F)c1)C(=O)N[C@@H](Cc1c[nH]c2ccccc12)C(=O)NC1CCC1	SIRT5	enzyme activity, inhibitor	–	–	53 ± 3
O=C(CN1CN(c2ccccc2)C2(CCN(C(=O)c3ccc4[nH]ncc4c3)CC2)C1=O)NCC(F)(F)F	DDR2	ligand displacement	–	–	820
COC(=O)CCCNC(=O)Cc1ccc(Nc2ncc(F)c(-c3cc(F)c4nc(C)n(C(C)C)c4c3)n2)cc1	CDK4	–	–	–	1.6
Fc1ccc2nc(NCCCNCc3cc(Cl)cc(Cl)c3)[nH]c2n1	Methionine--tRNA ligase, mitochondrial (MARS2, Homo sapiens, UniProt Q96GW9)	enzyme activity, inhibitor	–	–	19.5
Cc1nc2c(F)cc(-c3nc(Nc4ccc(CC(=O)NCCCCCCC(=O)NO)cc4)ncc3F)cc2n1C(C)C	CDK4	–	–	–	1.3
O=C(CN1CN(c2cccc(F)c2)C2(CCN(C(=O)c3cnc4[nH]ncc4c3)CC2)C1=O)NCC(F)(F)F	DDR2	ligand displacement	–	–	3250
CNC(=O)c1ccc(-c2cc(Cl)cc(Cl)c2Cl)c(N)n1	Sodium channel protein type 9 subunit alpha (SCN9A, Homo sapiens, UniProt Q15858)	ion current, inhibitor, patch clamp	–	–	24900
CC(C)C[C@H](NC(=O)[C@@H](CCCCNC(=O)[C@@H](Cc1ccccc1)NC(=O)CCCCCCCCCCNC(=O)CN1CCN(CC(=O)O)CCN(CC(=O)O)CCN(CC(=O)O)CC1)NC(=O)[C@H](Cc1ccc(O)cc1)NC(=O)[C@H](CO)NC(=O)[C@H](Cc1c[nH]c2ccccc12)NC(=O)[C@H](Cc1c[nH]cn1)NC(=O)[C@@H]1CCC(=O)N1)C(=O)N[C@@H](CCCNC(=N)N)C(=O)N1CCC[C@H]1C(=O)NCC(N)=O	Gonadotropin-releasing hormone receptor (GNRHR, Homo sapiens, UniProt P30968)	ligand displacement, radioligand	–	pH 7.4, cell membranes	24.6
C=CC[C@@H]1NC(=O)CCSCc2nc3ccccc3nc2CSC/C=C/CNC(=O)[C@H](CCCCCC(=O)N(O)CCCCCC)NC1=O	HDAC11	enzyme activity, inhibitor, fluorescence	–	–	180
CC1CC(C)CN(C(=O)Cn2ncc3cccn3c2=O)C1 (centres unmarked)	VKORC1	carboxylation, inhibitor, ELISA	HEK293 stably expressing	24 h, with: vitamin K epoxide 5 µM	5530
Cc1nc2c(F)cc(-c3nc(Nc4ccc(C(=O)NCCCCC(=O)NO)cc4)ncc3F)cc2n1C(C)C	CDK4	–	–	–	9
O=C(Nc1ccc(C(=O)Nc2ccc3c(O)cc(S(=O)(=O)O)cc3c2)cc1)c1ccccc1	Three-prime repair exonuclease 1 (Trex1, Mus musculus, UniProt Q91XB0)	protein-nucleic acid interaction, inhibitor, FP	–	–	1890
Cc1c(OS(=O)(=O)Oc2ccccc2-c2ccccc2)cccc1C(=O)NO	HDAC11	–	–	–	491
COc1ccc(C2=[N+]3C(=C(CCCCc4cn(CC(=O)N5CCc6nc(NC(=O)[C@H]7CCN(C#N)C7)sc6C5)nn4)c4ccc(-c5ccc(OC)cc5)n4[B-]3(F)F)C=C2)cc1	Ubiquitin carboxyl-terminal hydrolase isozyme L1 (UCHL1, Homo sapiens, UniProt P09936)	enzyme activity, inhibitor, fluorescence	–	with preincubation	3600
Cc1cc(C(=O)N[C@H](C(=O)Nc2cccc(C(N)=O)c2)c2ccc(OCc3ccccc3)cc2)n(Cc2ccccc2)n1	Genome polyprotein, NS2B-NS3 protease (dengue virus type 2, UniProt P29990)	enzyme activity	–	with: AMC substrate 50 µM	8600
Cc1nn(-c2cccc(N)c2)c(=O)c2cnc(Nc3ccc(N4CCNCC4)cc3)nc12	Ephrin type-B receptor 1 (EPHB1, Homo sapiens, UniProt P54762)	enzyme activity, inhibitor	–	–	2520

Compound	target	assay	system	setting	IC50 [nM]
C=CC(=O)Nc1cc(-c2nn(C3CCN(CCNC(=O)[C@H](C)CCC45CC6CC(CC(C6)C4)C5)CC3)c3ncnc(N)c23)ccc1Oc1ccccc1	Receptor tyrosine-protein kinase erbB-2 (ERBB2, Homo sapiens, UniProt P04626)	enzyme activity, inhibitor, FRET	–	–	> 10000
Cc1nc2c(F)cc(-c3nc(Nc4ccc(NC(=O)CCCCCCCC(=O)NO)cc4)ncc3F)cc2n1C(C)C	CDK4	–	–	–	1.2
N=C(N)NCCC[C@H](NC(=O)[C@H](CCCCNC(=S)NCCC(=O)O)NS(=O)(=O)c1cccc(F)c1)C(=O)NC1CCC1	SIRT5	inhibitor, fluorogenic	–	pre-incubation 4 h, with: NAD+ 500 µM	47 ± 1
O=C(CCc1ccc(CNC(C(=O)O)C2CCCCC2)cn1)NO (centres unmarked)	HDAC11	enzyme activity, inhibitor	–	–	871
Cc1cc(NC2CCN(C)CC2)ccc1-c1cc2c(N3CCC[C@H](C(=O)NCc4ccc(OC(F)(F)F)cc4)C3)ncnc2[nH]1	3-phosphoinositide-dependent protein kinase 1 (PDPK1, Homo sapiens, UniProt O15530)	enzyme activity, inhibitor, mobility shift	–	–	> 8000
Cc1cc(C)n(-c2nc(OCC(=O)N(C)CCc3ccccc3)cc(-c3ccccc3)n2)n1	Leucyl-cystinyl aminopeptidase (LNPEP, Homo sapiens, UniProt Q9UIQ6)	enzyme activity, inhibitor, fluorescence	–	–	4000
COc1ccc2c(c1)CN(C(=O)CCN1CCC(Cc3ccccc3)CC1)CCS2	Inward rectifier potassium channel 2 (KCNJ2, Homo sapiens, UniProt P63252)	IK1 current, inhibitor, whole-cell patch clamp	stable cell line	–	> 100000
COC(=O)Cc1cc2c(cc1C(=O)c1ccccc1Cl)OCO2	Glutamate receptor 2 (Gria2, Rattus norvegicus, UniProt P19491)	glutamate-evoked current, inhibitor, whole-cell patch clamp	HEK293T, homomeric receptor	–	5010
Cn1c(S)nnc1-c1ccc(F)cc1	TAR DNA-binding protein 43, residues 102-269 (TARDBP, Homo sapiens, UniProt Q13148)	protein-RNA binding, inhibitor, fluorescence polarization	–	40 nM protein, with: 10 nM RNA	8200 ± 1330
CC(C(=O)N1CCCC1c1cc2nc3c(c(O)n2n1)CCCC3)n1cncn1 (centres unmarked)	VKORC1	carboxylation, inhibitor, ELISA	HEK293 stably expressing	24 h, with: vitamin K epoxide 5 µM	19300
C=CC(=O)N1C[C@H](C)N(c2nc(OC[C@@]34CCCN3C[C@H](F)C4)nc3c(F)c(-c4ccc(F)c5sc(N)c(C#N)c45)c(C(F)(F)F)cc23)C[C@H]1C	GTPase KRas, GppNHp; with RAF1 RBD (KRAS, Homo sapiens, UniProt P01116, A146T)	–	–	–	480 ± 70
CC(C)c1ccc(/C=C/C(=O)c2ccc(Cl)cc2)cc1	Amine oxidase [flavin-containing] A (MAOA, Homo sapiens, UniProt P21397)	enzyme activity, inhibitor	–	–	5680
Cc1nc2c(F)cc(-c3nc(Nc4ccc(CNC(=O)CCCCCCC(=O)NO)cc4)ncc3F)cc2n1C(C)C	HDAC11	enzyme activity, inhibitor	–	–	6800
Cc1ccc(C[C@H]2CON=C(c3cc(C)nnc3Oc3cccc(Cl)c3F)N2)c(Cl)c1	serine palmitoyltransferase (Botrytis cinerea, UniProt A0A384JAG3+A0A384JQT2)	–	–	–	3 ± 1
N#Cc1ccc(Nc2nc(N)cc(Oc3c(F)cc(-c4cccc(C#N)c4)cc3F)n2)cc1	Gag-Pol polyprotein, reverse transcriptase (gag-pol, Human immunodeficiency virus 1, UniProt P03366)	enzyme activity, inhibitor	–	–	120
CC[C@H](C)[C@@H]1NC(=O)[C@H](Cc2ccccc2C(F)(F)F)NC(=O)CCSCc2cccc(n2)CSCCCNC(=O)[C@H](CCCCCC(=O)N(O)CCCCCCCl)NC1=O	HDAC11	enzyme activity, inhibitor, fluorescence	–	–	23

Some of these lines once more:
Compound	target	assay	system	setting	IC50 [nM]
CC[C@H](C)[C@@H]1NC(=O)[C@H](Cc2ccccc2C(F)(F)F)NC(=O)CCSCc2cccc(n2)CSCCCNC(=O)[C@H](CCCCCC(=O)N(O)CCCCCCCl)NC1=O	HDAC11	enzyme activity, inhibitor, fluorescence	–	–	23
O=C(CN1CN(c2cccc(F)c2)C2(CCN(C(=O)c3cnc4[nH]ncc4c3)CC2)C1=O)NCC(F)(F)F	DDR2	ligand displacement	–	–	3250
CC1CC(C)CN(C(=O)Cn2ncc3cccn3c2=O)C1 (centres unmarked)	VKORC1	carboxylation, inhibitor, ELISA	HEK293 stably expressing	24 h, with: vitamin K epoxide 5 µM	5530
O=C(O)CCNC(=S)NCCCC[C@H](NS(=O)(=O)c1cccc(F)c1)C(=O)N[C@@H](Cc1c[nH]c2ccccc12)C(=O)NC1CCC1	SIRT5	enzyme activity, inhibitor	–	–	53 ± 3
